Experimental data collected from several papers.
Protocols differ between the studies behind these lines. “And” joins repeats or separate records; there may be more than shown. Numbers after ± are the reported error.

O=S(=O)(O)C1CCNCC1  normalised MST signal (Sodium- and chloride-dependent taurine transporter (SLC6A6, Homo sapiens, UniProt P31641, G62A); binding, microscale thermophoresis; 61 nM, room temperature, added: 50 nM labelled protein; higher = more binding): 0.015
CN(CCOc1ccc(NS(C)(=O)=O)cc1)CCc1ccc(NS(C)(=O)=O)cc1  koff (Nuclear receptor subfamily 2 group C member 2, ligand-binding domain (Homo sapiens, UniProt P49116); SPR imaging; 600 nM): 5.66e-07 s⁻¹
Nc1ncnc2c1ncn2[C@@H]1O[C@H](COP(=O)(O)CP(=O)(O)OP(=O)(O)O)[C@@H](O)[C@H]1O  specific binding (P2X purinoceptor 1 (P2RX1, Homo sapiens, UniProt P51575, E282A); saturation binding; HEK293; 130 nM): 2560 CCPM
CCN1CCC[C@H]1CNC(=O)c1c(O)c(Cl)cc(Cl)c1OC  log2 fold change (G-prodeshotein coupled receptor 4 (GPR4, Homo sapiens, UniProt P46093); β-arrestin recruitment, TANGO luminescence; concentration not given; relative to: basal luminescence): 0.032
Nc1nc2c(ncn2[C@@H]2O[C@H](COP(=O)(O)O)[C@@H](O)[C@H]2O)c(=O)[nH]1  reaction rate (GUK1 (Homo sapiens, UniProt Q16774, Y81A); enzyme activity, NADH-coupled; 125 µM): 1.64 s⁻¹ and 2.22 s⁻¹ and 1.31 s⁻¹
Cc1ncccc1OC[C@H]1CN(CCN2CCc3ccccc32)CCO1  inhibition (D(1B) dopamine receptor (DRD5, Homo sapiens, UniProt P21918); radioligand binding; concentration not given, added: [3H]SCH23390): 17.1%
O=C(NCc1ccccc1)c1c(/N=C/c2c(O)ccc3ccccc23)sc2c1CCCC2  viability (OCI-Ly1; 1 µM, 120 h): 106%
COc1cccc(-c2ccc(NC(=O)C3=C(C(=O)O)CCC3)c(F)c2)c1  apoptotic cells (COS-7; 10 µM, 24 h, 0.1% DMSO, unit not given; relative to: vehicle control): 0.78 ± 0.21
CC[C@H](C)[C@@H]1NC(=O)[C@H](CCCNC(=N)N)NC(=O)[C@@H]2CCCN2C(=O)[C@H](Cc2ccccc2)NC(=O)[C@H]([C@@H](C)O)NC(=O)CNC(=O)[C@H](CC(C)C)NC(=O)[C@@H]2CCCN2C(=O)[C@H]([C@@H](C)O)NC(=O)[C@H](Cc2c[nH]c3ccccc23)NC(=O)[C@H](Cc2ccc(O)cc2)NC(=O)[C@H]([C@@H](C)CC)NC(=O)[C@H]([C@@H](C)O)NC(=O)[C@H]([C@@H](C)O)NC(=O)[C@@H](Cc2ccc(O)cc2)NC(=O)CSC[C@@H](C(N)=O)NC(=O)[C@H](CCCNC(=N)N)NC1=O  ΔH (VPS35/VPS29 (Homo sapiens, UniProt Q96QK1+Q9UBQ0); binding, isothermal titration calorimetry; 25 °C): -11.2 ± 1 kcal/mol
O=C(O)C[C@H](O)C[C@H](O)/C=C/c1c(C2CC2)nc2ccccc2c1-c1ccc(F)cc1  apoptotic cells (COS-7; 30 µM, 24 h, 0.1% DMSO, unit not given; relative to: vehicle control): 2.04 ± 0.25
O=C1CSC(=S)N1NC(=S)SSC(=S)NN1C(=O)CSC1=S  positive cells (Tyrosine-protein phosphatase non-receptor type 22 (PTPN22, Homo sapiens, UniProt Q9Y2R2); inhibitor, phospho-flow cytometry; 50 µM, added: TCR stimulation; relative to: DMSO): 20.1%
CC[C@@H]1[C@H](F)C(=O)N[C@@H]1COc1nccc2cc(C(N)=O)c(OC)cc12  inhibition (Calcium/calmodulin-dependent protein kinase type II subunit gamma (CAMK2G, Homo sapiens, UniProt Q13555); ATP-site probe binding, ActivX profiling; THP-1 cell lysate; 0.04 mM, Lys1 site): 3.3%
Nc1ccc(C(=O)O)cc1  current density (BEST1, with wild-type BEST1 (Homo sapiens, UniProt O76090, L234P); ion current, whole-cell patch clamp; HEK293 co-expressing mutant and wild-type; concentration not given, voltage 100 mV): 15.6 pA/pF and 10.8 pA/pF and 24.6 pA/pF and 55.1 pA/pF and 31 pA/pF and 20.1 pA/pF
COC(=O)c1ccccc1SC1=NS(=O)(=O)c2ccccc21  Km (Pyruvate kinase PKLR (PKLR, Homo sapiens, UniProt P30613); enzyme activity, activator, ADP and PEP titration; 0.5 mM, apparent Km, Vmax, Hill coefficient, added: PEP or ADP substrate): no effect
CC(C)C[C@@H]1NC(=O)[C@H](C(C)C)NC(=O)CNC(=O)[C@H](CC(N)=O)NC(=O)[C@@H]2CCCN2C(=O)[C@H](Cc2ccc(O)cc2)NC(=O)[C@H](CCCNC(=N)N)NC(=O)[C@H](Cc2ccccc2)NC(=O)[C@@H](NC(=O)[C@H](CCCCN)NC(=O)[C@@H]2CCCN2C(=O)[C@H](C)NC(=O)[C@H](C)NC(=O)[C@@H](N)Cc2ccc(O)cc2)CSSC[C@@H](C(=O)N[C@H](C(N)=O)[C@@H](C)O)NC(=O)[C@H](C)NC1=O  binding stoichiometry (Alpha-2-HS-glycoprotein, asialo (AHSG, Bos taurus, UniProt P12763); isothermal titration calorimetry; concentration not given, pH 7.0, 25 °C, added: asialofetuin): 0.115
O=C(COP(=O)(O)O)[C@@H](O)[C@H](O)[C@H](O)COP(=O)(O)O  thermal stability ratio (Small ribosomal subunit protein eS7 (Homo sapiens, UniProt P62081); thermal proteome profiling, measured: RPS7; HepG2 cell lysate; concentration not given, 57 over 37 °C; relative to: compound over control): 0.769 and 0.389 and 0.714
CCS(=O)(=O)c1nc(C2CC2)cc(C(F)(F)F)n1  cells with nuclear reporter (Exportin-1 (XPO1, Homo sapiens, UniProt O14980); nuclear export, high content imaging; HeLa Kyoto reporter; 0.158 µM, 2 h): 3.43% and 2.4% and 3.7%
Cc1cccc(N2CC(C(=O)O)CC2=O)c1 (stereo not shown)  fold enrichment (S-phase kinase-associated protein 1 (SKP1, Homo sapiens, UniProt P63208); binding, affinity selection mass spectrometry; relative to: other proteins in batch): 1.06
COc1ccc(CCc2nc3cc(-c4c(C)noc4C)ccc3n2C[C@H](C)N2CCOCC2)cc1Cl  viability (OCI-Ly1; 1 µM, 120 h): 70.7%

Some of these lines once more:
Nc1ncnc2c1ncn2[C@@H]1O[C@H](COP(=O)(O)CP(=O)(O)OP(=O)(O)O)[C@@H](O)[C@H]1O  specific binding (P2X purinoceptor 1 (P2RX1, Homo sapiens, UniProt P51575, E282A); saturation binding; HEK293; 130 nM): 2560 CCPM
